Experimental data collected from several papers.
Each numbered part is a random draw from the data of one study; scales do not carry over between parts.

Sample 1 — technique: universal PBM; molecule type: double-stranded DNA, one strand shown; sample: in vitro; concentration: 600 nM; reading: higher = stronger binding; measurement: E-score
Target: Sal-like protein 4, full length isoform A (SALL4, Homo sapiens, UniProt Q9UJQ4, residues 1-1053)
UniProt Q9UJQ4, sequence (whole entry, looked up): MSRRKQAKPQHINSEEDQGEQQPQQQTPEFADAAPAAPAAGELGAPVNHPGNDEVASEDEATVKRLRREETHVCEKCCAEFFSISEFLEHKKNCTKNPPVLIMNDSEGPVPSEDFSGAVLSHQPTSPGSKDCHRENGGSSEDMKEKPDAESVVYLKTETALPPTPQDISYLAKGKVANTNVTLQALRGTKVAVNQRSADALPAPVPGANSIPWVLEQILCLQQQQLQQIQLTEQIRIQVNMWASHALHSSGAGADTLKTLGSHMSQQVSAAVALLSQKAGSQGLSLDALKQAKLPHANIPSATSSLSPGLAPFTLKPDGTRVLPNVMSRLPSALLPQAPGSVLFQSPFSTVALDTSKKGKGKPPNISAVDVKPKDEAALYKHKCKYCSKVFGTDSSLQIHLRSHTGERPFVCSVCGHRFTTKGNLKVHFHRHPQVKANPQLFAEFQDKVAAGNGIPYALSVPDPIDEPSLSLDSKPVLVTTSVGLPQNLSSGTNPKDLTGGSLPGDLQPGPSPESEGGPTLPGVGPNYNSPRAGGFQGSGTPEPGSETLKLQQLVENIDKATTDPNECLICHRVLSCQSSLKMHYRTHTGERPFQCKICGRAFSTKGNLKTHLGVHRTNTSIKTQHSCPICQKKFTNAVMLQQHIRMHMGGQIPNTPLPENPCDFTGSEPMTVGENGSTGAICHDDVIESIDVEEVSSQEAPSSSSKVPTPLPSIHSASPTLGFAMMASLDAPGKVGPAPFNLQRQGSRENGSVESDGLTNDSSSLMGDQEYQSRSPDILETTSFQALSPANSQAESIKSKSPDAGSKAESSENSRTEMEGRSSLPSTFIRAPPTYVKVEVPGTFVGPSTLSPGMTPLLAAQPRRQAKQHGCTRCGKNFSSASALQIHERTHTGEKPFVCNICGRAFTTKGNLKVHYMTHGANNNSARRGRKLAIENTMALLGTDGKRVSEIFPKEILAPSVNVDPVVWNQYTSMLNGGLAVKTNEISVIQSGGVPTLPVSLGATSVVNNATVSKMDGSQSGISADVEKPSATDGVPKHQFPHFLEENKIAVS
Setting: 8-mer, flanks averaged, mean of replicates
CACACGAC: -0.131
CGGGTCCA: -0.346
CCAAAGGA: 0.00396
ACAGCTGA: -0.143
GTAGCCGA: -0.215
AGTTGTAT: 0.194
CAGCGCAC: -0.261
AAATTTTA: 0.313

Sample 2 — observed: enzyme activity; action: inhibitor; concentration: 20 µM; setting: hit confirmation, with DTT; measurement: inhibition
Target: Replicase polyprotein 1ab, main protease (rep, Severe acute respiratory syndrome coronavirus 2, UniProt P0DTD1)
C=C1c2cccc(O)c2C(=O)C2=C(O)[C@]3(O)C(=O)C(C(N)=O)=C(O)[C@@H](N(C)C)[C@@H]3[C@@H](O)[C@H]12: 10.3%
C[C@@H](CN1CC(=O)NC(=O)C1)N1CC(=O)NC(=O)C1: -22.9%
N=C(N)NN=C1C=CC(=NNC(N)=S)C=C1: 1.8%
O=C1NC(=O)C(c2ccccc2)N1 (centres unmarked): 92%
Cc1ccc(S(=O)(=O)/C=C/C#N)cc1: -12.5%

Sample 3 — observed: enzyme activity; action: inhibitor; concentration: 20 µM; measurement: inhibition
Target: Replicase polyprotein 1ab, polymerase (rep, Severe acute respiratory syndrome coronavirus 2, UniProt P0DTD1)
O=c1oc(-c2ccc(C(F)(F)F)cc2)nn1Cc1cc(Cl)ccc1O: -0.87%
CC(C)n1nc(C#Cc2ccccc2)c2c(N)ncnc21: 1.95%
CC(C)NCC(O)c1ccccc1Cl (centres unmarked): -0.2%
CN(C(=O)C(Cl)Cl)c1ccc(OC(=O)c2ccco2)cc1: -12.3%
Cc1cc2cc3c(C)cc(=O)oc3c(C)c2o1: 3.14%
Clc1ccc(Cn2c(CN3CCCC3)nc3ccccc32)cc1: 3.79%
Cc1ccc2c(c1)c1c3n2CCNC3CCC1 (centres unmarked): -14.4%
O=C(O)CCc1nc(-c2ccccc2)c(-c2ccccc2)o1: -7.63%
CCN1CCCC1CNC(=O)c1cc(S(=O)(=O)CC)c(N)cc1OC (centres unmarked): 3.15%
CCCCCCCCCCCC1=C(O)C(=O)C=C(O)C1=O: 8.45%
O=C(O)c1ccccc1S: -2.44%
COc1cc(OC)nc(O[C@H](C(=O)O)C(OC)(c2ccccc2)c2ccccc2)n1: -3.56%
CC(C)(C)NC(=O)[C@@H]1CN(Cc2cccnc2)CCN1C[C@@H](O)C[C@@H](Cc1ccccc1)C(=O)N[C@H]1c2ccccc2C[C@H]1O: -5.62%
CCOC(=O)n1ccn(C)c1=S: -6.78%
CCC[C@H](N[C@H]1CCc2cc(F)cc(F)c2C1)C(=O)Nc1cn(C(C)(C)CNCC(C)(C)C)cn1: -1.72%
CN(C)C/C=C/C(=O)Nc1cccc(C(=O)Nc2cccc(Nc3ncc(Cl)c(-c4c[nH]c5ccccc45)n3)c2)c1: 2.14%
O=C(NC(=O)c1c(F)cccc1F)Nc1cc(Cl)c(OC(F)(F)C(F)C(F)(F)F)cc1Cl (centres unmarked): -7.06%
CN(C)C(=O)C(=O)c1cn(C)c2cc(Cl)c(C(=O)N3CCC(Cc4ccc(F)cc4)CC3)cc12: -12.5%
COc1cc(C)nc(-n2nc(C)cc2OC)n1: 0.9%
NCCNC(=O)c1ccc(Cl)cn1: -0.62%
CN1c2cc3c(cc2N=C(c2ccc(C(=O)O)cc2)c2ccccc21)C(C)(C)CCC3(C)C: -2.13%

Sample 4 — cell line: HEK-293T; observed: pseudovirus infection; organism: VSV pseudotyped with SARS-CoV-2 spike; concentration: 10 µM; time: 16 h; relative to: vehicle-treated; measurement: GFP-positive cells
CC(=O)c1c(C)c2cnc(Nc3ccc(N4CCNCC4)cn3)nc2n(C2CCCC2)c1=O: 96.2%
CC(=O)Nc1cccc(-n2c(=O)n(C3CC3)c(=O)c3c(Nc4ccc(I)cc4F)n(C)c(=O)c(C)c32)c1: 87.1%
CCCCN1CCCC[C@H]1C(=O)Nc1c(C)cccc1C: 90.6%
Cc1ccccc1C(=O)Nc1ccc(C(=O)N2CCCC(O)c3cc(Cl)ccc32)c(C)c1 (centres unmarked): 89.9%
CCn1cc(C(=O)O)c(=O)c2cc(F)c(N3CCNCC3)nc21: 84.6%

Sample 5 — technique: competition protein-binding microarray; molecule type: double-stranded DNA, one strand shown; sample: in vitro; concentration: 2 µM; together with: Cbf1 competitor, 0.05 µM; reading: higher = stronger binding; measurement: fluorescence intensity
Target: Phosphate system positive regulatory protein PHO4, full length, GST-tagged (PHO4, Saccharomyces cerevisiae, UniProt P07270, residues 1-312)
Setting: whole 60-bp probe, lowest competitor level
Residues (chain): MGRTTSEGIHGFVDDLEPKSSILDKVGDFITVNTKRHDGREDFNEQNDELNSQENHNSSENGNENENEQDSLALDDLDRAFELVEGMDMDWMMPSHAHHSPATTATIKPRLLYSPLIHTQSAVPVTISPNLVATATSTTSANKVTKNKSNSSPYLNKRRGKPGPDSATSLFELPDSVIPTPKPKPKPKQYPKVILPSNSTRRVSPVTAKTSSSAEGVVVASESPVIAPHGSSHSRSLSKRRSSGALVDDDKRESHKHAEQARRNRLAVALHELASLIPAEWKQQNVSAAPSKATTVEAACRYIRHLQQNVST
TGCGCAACAACTTGTCACAGTACTTTATGTCTAGAAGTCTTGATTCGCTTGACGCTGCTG: 3560 a.u.
TAGCCGCTAAGGGTAGACATGACGCTGCTGTTCATCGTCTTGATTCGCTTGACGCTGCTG: 4760 a.u.
CTGCCATTCAAGCCAAGCGTGTCTGTATCCAAAAGAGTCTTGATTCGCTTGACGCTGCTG: 6230 a.u.
TTGGAGCAGAACAAACACCTGATGACGCGGAAGACGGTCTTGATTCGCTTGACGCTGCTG: 4270 a.u.
CTAACGAAGGTTTGCACAGTGGGTGACAAGCCAAGTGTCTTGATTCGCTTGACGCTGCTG: 3990 a.u.

Repeated from above (sample 2):
N=C(N)NN=C1C=CC(=NNC(N)=S)C=C1: 1.8%
C[C@@H](CN1CC(=O)NC(=O)C1)N1CC(=O)NC(=O)C1: -22.9%
Cc1ccc(S(=O)(=O)/C=C/C#N)cc1: -12.5%
